Measured values from different studies.
Each line is one published result; not all experiments were run side by side. Values joined by “and” are separate records of one study, mostly repeats; a detail may differ. Numbers after ± are the reported error.
Cell line: MDCK

O=c1[nH]c(=O)n([C@H]2C[C@H](O)[C@@H](CO)O2)cc1F — viability (CCK-8; 100 µM, 24 h): 94 ± 0.69%
Cn1cc(-c2cccc(N3CCn4c(cc5c4CC(C)(C)C5)C3=O)c2CO)cc(Nc2ccncn2)c1=O — apparent permeability A-B (10 µM, 3 h): 24.3 ×10⁻⁶ cm/s
OCC1=C(F)[C@@H](n2nnc3c(NO)ncnc32)[C@H](O)[C@@H]1O — CC50 (MTT; 3 (unit not given)): > 100 µM
CCCCc1nc(N)[nH]c(=O)c1Br — minimum cytotoxic concentration (cell morphology alteration): > 100 µM
CCOC(=O)C1=C[C@@H](OC(CC)CC)[C@H](NC(C)=O)[C@@H](N)C1 — CC50 (MTT; 3 (unit not given)): > 100 µM
CC(N)C12CC3CC(CC(C3)C1)C2 (stereo not shown) — minimum cytotoxic concentration (cell morphology alteration): > 200 µM
Cc1ncc(OC[C@@]2(c3cccc(F)c3)C[C@H]2C(=O)Nc2ccc(F)cn2)c(C)n1 — Papp (permeability basolateral to apical; 1 µM, 90 min, pH 6.5 apical to 7.4 basolateral): 43.2 ×10⁻⁶ cm/s and 53.4 ×10⁻⁶ cm/s
Nc1nc(CC(O)c2ccccc2C(F)(F)F)c(Br)c(=O)[nH]1 (stereo not shown) — minimum cytotoxic concentration (cell morphology alteration): > 100 µM
Cn1cc(-c2cccc(N3CCc4c(cc5n4CCCC5)C3=O)c2CO)cc(Nc2ccncn2)c1=O — apparent permeability A-B (10 µM, 3 h): 10.9 ×10⁻⁶ cm/s
Nc1nc(CCc2ccccc2)c(Br)c(=O)[nH]1 — minimum cytotoxic concentration (cell morphology alteration): > 100 µM
Sc1ncnc2nc[nH]c12 — viability (CCK-8; 100 µM, 24 h): 83.07 ± 0.74%
CCCc1nc(N)[nH]c(=O)c1Br — minimum cytotoxic concentration (cell morphology alteration): > 100 µM
O=c1[nH]cc(F)c(=O)[nH]1 — viability (CCK-8; 100 µM, 24 h): 92.3 ± 5.38%
Nc1nc(N)c2nnn([C@@H]3C(F)=C(CO)[C@@H](O)[C@H]3O)c2n1 — CC50 (MTT; 3 (unit not given)): > 100 µM
NC(=O)c1ncn([C@@H]2O[C@H](CO)[C@@H](O)[C@H]2O)n1 — viability (CCK-8; 100 µM, 24 h): 87.5 ± 1.56%
Cn1cc(-c2cc(F)cc(N3CCn4c(cc5c4CCCC5)C3=O)c2CO)cc(Nc2ccc(N3CCN(C4COC4)CC3)cn2)c1=O — apparent permeability A-B (10 µM, 3 h): 11.5 ×10⁻⁶ cm/s

Repeated from above:
CC(N)C12CC3CC(CC(C3)C1)C2 (stereo not shown) — minimum cytotoxic concentration (cell morphology alteration): > 200 µM
